Measured values of several laboratories.
Compare with care: the assays were run in different laboratories.
Cell line: human red blood cells

For `CC(C)C[C@H](N)C(=O)N[C@@H](Cc1c[nH]c2ccccc12)C(=O)NCC(=O)N[C@@H](CCCNC(=N)N)C(=O)N[C@@H](Cc1ccccc1)C(=O)N[C@@H](Cc1ccccc1)C(=O)N[C@@H](CCCNC(=N)N)C(=O)N[C@@H](CCCCN)C(=O)N[C@@H](Cc1ccc(-c2ccccc2)cc1)C(=O)N[C@@H](CCCCN)C(N)=O`, the HC10 was 100 µM (haemolysis; 1 h, 37 °C).
`CC(C)C[C@H](NC(=O)[C@@H]1CSCC(=O)N[C@@H](CCCCN)C(=O)N[C@@H](CC(C)C)C(=O)N[C@@H](CC(C)C)C(=O)NCCCC[C@@H]2NC(=O)[C@H](CC(C)C)NC(=O)[C@H](CC(C)C)NC(=O)[C@H](CCCCN)NC(=O)CSC[C@H](NC(=O)[C@H](CC(C)C)NC(=O)[C@H](CC(C)C)NC(=O)[C@H](CCCCN)NC2=O)C(=O)N[C@@H](CCCCN)C(=O)N[C@@H](CCCCN)C(=O)N[C@@H](CCCCN)C(=O)N1)C(N)=O` — result for “minimal haemolytic concentration”: 2000 µg/mL (4 h, pH 7.4, room temperature).
For `CC[C@H](C)[C@H](NC(=O)[C@H](CCCCN)NC(=O)[C@@H](NC(=O)[C@H](CS)NC(=O)[C@H](CCCNC(=N)N)NC(=O)[C@H](CCCNC(=N)N)NC(=O)[C@H](CC(N)=O)NC(=O)[C@H](CCCNC(=N)N)NC(=O)[C@H](CCCNC(=N)N)NC(=O)[C@H](CS)NC(=O)[C@@H](NC(=O)[C@H](CO)NC(=O)[C@@H](NC(=O)[C@@H](NC(=O)[C@H](CS)NC(=O)[C@H](CCCCN)NC(=O)[C@@H](N)CCCNC(=N)N)C(C)C)[C@@H](C)CC)C(C)C)[C@@H](C)CC)C(=O)N[C@@H](CC(C)C)C(=O)N[C@@H](CS)C(=O)N[C@@H](CC(N)=O)C(=O)O`, the hemolysis was 1.13% (128 µg/mL, 3 h, 37 °C; baseline: Triton X-100).
Under “minimum haemolytic concentration”, `CC(C)C[C@H](NC(=O)[C@H](CCCCN)NC(=O)[C@H](CCCCNC(=O)[C@H](CC(C)C)NC(=O)[C@H](CCCCN)NC(=O)[C@H](CCCCNC(=O)[C@H](CC(C)C)NC(=O)[C@H](CCCCN)NC(=O)[C@H](CCCCNC(=O)[C@H](CC(C)C)NC(=O)[C@@H](N)CCCCN)NC(=O)[C@H](CC(C)C)NC(=O)[C@@H](N)CCCCN)NC(=O)[C@H](CC(C)C)NC(=O)[C@H](CCCCN)NC(=O)[C@H](CCCCNC(=O)[C@H](CC(C)C)NC(=O)[C@@H](N)CCCCN)NC(=O)[C@H](CC(C)C)NC(=O)[C@@H](N)CCCCN)NC(=O)[C@H](CC(C)C)NC(=O)[C@H](CCCCN)NC(=O)[C@H](CCCCNC(=O)[C@H](CC(C)C)NC(=O)[C@H](CCCCN)NC(=O)[C@H](CCCCNC(=O)[C@H](CC(C)C)NC(=O)[C@@H](N)CCCCN)NC(=O)[C@H](CC(C)C)NC(=O)[C@@H](N)CCCCN)NC(=O)[C@H](CC(C)C)NC(=O)[C@H](CCCCN)NC(=O)[C@H](CCCCNC(=O)[C@H](CC(C)C)NC(=O)[C@@H](N)CCCCN)NC(=O)[C@H](CC(C)C)NC(=O)[C@@H](N)CCCCN)C(N)=O` is recorded as 1000 µg/mL (haemolysis; 4 h, pH 7.4, 25 °C).
With `CC[C@H](C)[C@H](NC(=O)[C@H](Cc1ccccc1)NC(=O)[C@H](CC(=O)O)NC(=O)[C@H](CCCCN)NC(=O)[C@H](C)NC(=O)[C@H](CCCCN)NC(=O)[C@H](CC(N)=O)NC(=O)[C@H](CC(C)C)NC(=O)[C@H](Cc1c[nH]c2ccccc12)NC(=O)[C@H](CCC(=O)O)NC(=O)[C@H](CCCCN)NC(=O)[C@H](Cc1c[nH]c2ccccc12)NC(=O)CNC(=O)[C@H](C)N)C(=O)N[C@@H](CCCCN)C(=O)N[C@@H](CCC(=O)O)C(=O)N[C@@H](CCCCN)C(=O)NCC(=O)N[C@@H](CC(C)C)C(=O)NCC(=O)N[C@@H](CCSC)C(=O)N[C@@H](CC(C)C)C(=O)N[C@@H](CO)C(=O)N[C@@H](C)C(=O)N[C@@H](C)C(=O)N[C@@H](C)C(=O)N[C@@H](CC(N)=O)C(=O)N[C@@H](C)C(=O)N[C@@H](C)C(=O)N[C@@H](CC(C)C)C(=O)N[C@@H](CC(N)=O)C(=O)O` the HC50 was greater than 100 µM (1 h).
For `CC[C@H](C)[C@H](NC(=O)[C@H](C)NC(=O)[C@H](CC(N)=O)NC(=O)[C@H](CCCNC(=N)N)NC(=O)[C@H](CCCNC(=N)N)NC(=O)[C@H](CC(N)=O)NC(=O)[C@H](CCCNC(=N)N)NC(=O)[C@H](CCCNC(=N)N)NC(=O)[C@H](C)NC(=O)[C@@H](NC(=O)[C@H](CC(C)C)NC(=O)[C@@H](NC(=O)[C@@H](NC(=O)[C@H](CS)NC(=O)[C@H](CCCCN)NC(=O)[C@@H](N)CCCNC(=N)N)C(C)C)[C@@H](C)CC)C(C)C)C(=O)N[C@H](C(=O)N[C@H](C(=O)N[C@@H](CC(C)C)C(=O)N[C@@H](CS)C(=O)N[C@@H](CCCNC(=N)N)C(=O)O)[C@@H](C)CC)C(C)C`, the hemolysis was 7.52% (128 µg/mL, 3 h, 37 °C; baseline: Triton X-100).
For `CC[C@H](C)[C@H](NC(=O)[C@H](C)NC(=O)[C@H](CCCCN)NC(=O)[C@H](CC(C)C)NC(=O)[C@@H](N)Cc1ccccc1)C(=O)N[C@@H](CCCCN)C(=O)N[C@@H](CCCCN)C(=O)N[C@@H](Cc1ccccc1)C(=O)NCC(=O)N[C@@H](CCCCN)C(=O)N[C@@H](CCC(=O)O)C(=O)N[C@@H](Cc1ccccc1)C(=O)N[C@@H](CCCCN)C(=O)N[C@@H](CCCCN)C(=O)N[C@H](C(=O)NCC(=O)N[C@@H](C)C(=O)N[C@@H](CCCCN)C(=O)N[C@@H](CC(C)C)C(=O)N[C@@H](CCCCN)C(=O)O)[C@@H](C)CC`, the HC50 was greater than 128 mg/L (human blood).
The HC50 of `CC[C@H](C)[C@H](NC(=O)[C@H](CCCN)NC(=O)[C@H](CC(N)=O)NC(=O)[C@H](Cc1c[nH]c2ccccc12)NC(=O)[C@H](Cc1ccccc1)NC(=O)[C@H](CCCN)NC(=O)[C@H](CCCNC(=N)N)NC(=O)[C@H](CC(C)C)NC(=O)[C@H](Cc1c[nH]c2ccccc12)NC(=O)[C@H](CCCN)NC(=O)[C@H](CCCNC(=N)N)NC(=O)[C@H](CC(C)C)NC(=O)CNC(C)=O)C(=O)N[C@@H](CCCN)C(=O)N[C@@H](CCCNC(=N)N)C(N)=O` is reported as 184 µM (5 % erythrocyte suspension; 1 h, 37 °C).
With `C[C@@H](O)[C@H](NC(=O)[C@H](CCCNC(=N)N)NC(=O)[C@H](CCCNC(=N)N)NC(=O)[C@H](CCCNC(=N)N)NC(=O)[C@@H]1CCCN1C(=O)[C@@H](N)CO)C(=O)N1CCC[C@H]1C(=O)N[C@@H](CO)C(=O)N1CCC[C@H]1C(=O)N[C@@H](CCCNC(=N)N)C(=O)N[C@@H](CCCNC(=N)N)C(=O)N[C@@H](CCCNC(=N)N)C(=O)N[C@@H](CCCNC(=N)N)C(=O)N[C@@H](CO)C(=O)N[C@@H](CCC(N)=O)C(=O)N[C@@H](CO)C(=O)N1CCC[C@H]1C(=O)N[C@@H](CCCNC(=N)N)C(=O)N[C@@H](CCCNC(=N)N)C(=O)N[C@@H](CCCNC(=N)N)C(N)=O` the HC50 was greater than 100 µM (24 h, pH 7.4, 37 °C, 0.25% v/v erythrocytes).
For `CC[C@H](C)[C@@H]1NC(=O)[C@H](C)NC(=O)[C@H](CCCNC(=N)N)NC(=O)[C@H](CCCNC(=N)N)NC(=O)[C@H](CC(N)=O)NC(=O)[C@H](CCCNC(=N)N)NC(=O)[C@H](C)NC(=O)[C@H](C(C)C)NC(=O)[C@H]([C@@H](C)CC)NC(=O)[C@H](C(C)C)NC(=O)[C@@H](NC(=O)[C@H](CCCCN)NC(=O)[C@@H](N)CCCNC(=N)N)CSSC[C@@H](C(=O)N[C@@H](CCCNC(=N)N)C(=O)O)NC(=O)[C@H](CC(C)C)NC(=O)[C@H]([C@@H](C)CC)NC1=O`, the hemolysis was -0.13% (128 µg/mL, 3 h, 37 °C; baseline: Triton X-100).
For `CC[C@H](C)[C@H](NC(=O)[C@H](CCCCNC(=N)N)NC(=O)[C@H](CC(N)=O)NC(=O)[C@H](CC(C)C)NC(=O)[C@H](Cc1ccccc1)NC(=O)[C@H](CCCCNC(=N)N)NC(=O)[C@H](CCCCNC(=N)N)NC(=O)[C@H](CC(C)C)NC(=O)[C@H](CC(C)C)NC(=O)[C@H](CCCCNC(=N)N)NC(=O)[C@H](CCCCNC(=N)N)NC(=O)[C@H](CC(C)C)NC(=O)CNC(C)=O)C(=O)N[C@@H](CCCCNC(=N)N)C(=O)N[C@@H](CCCCNC(=N)N)C(N)=O`, the HC50 was greater than 1000 µM (5 % erythrocyte suspension; 1 h, 37 °C).
The hemolysis of `CC[C@H](C)[C@H](NC(=O)[C@@H](CCCCN)NC(=O)[C@H](CCCCN)NC(=O)[C@H](Cc1ccccc1)NC(=O)[C@H](CC(C)C)NC(=O)[C@@H](CCCCN)NC(=O)[C@H](Cc1c[nH]c2ccccc12)NC(=O)[C@H](CCCCN)NC(C)=O)C(=O)NCC(=O)N[C@@H](C)C(=O)N[C@H](C(=O)N[C@@H](CC(C)C)C(=O)N[C@H](CCCCN)C(=O)N[C@H](C(=O)N[C@@H](CC(C)C)C(N)=O)C(C)C)C(C)C` is reported as less than 1% (64 µM, 1 h, 37 °C; baseline: Triton X-100).
`CC(C)C[C@@H]1NC(=O)[C@H](CCCCN)NC(=O)CSC[C@@H]2NC(=O)[C@H](CC(C)C)NC(=O)[C@H](CC(C)C)NC(=O)[C@H](CCCCN)NC(=O)[C@H](CCCCNC(=O)[C@H](CCCCN)NC1=O)NC(=O)[C@H](CCCCN)NC(=O)[C@H](CC(C)C)NC(=O)[C@H](CCCCN)NC(=O)CSC[C@@H](C(=O)N[C@@H](CCCCN)C(N)=O)NC(=O)[C@H](CC(C)C)NC(=O)[C@H](CC(C)C)NC(=O)[C@H](CC(C)C)NC2=O` — result for “minimal haemolytic concentration”: 1000 µg/mL (4 h, pH 7.4, room temperature).
For `CC[C@H](C)[C@H](NC(=O)[C@H](Cc1ccccc1)NC(=O)[C@H](CC(=O)O)NC(=O)[C@H](CCCCN)NC(=O)[C@H](C)NC(=O)[C@H](CCCCN)NC(=O)[C@H](CC(N)=O)NC(=O)[C@H](CC(C)C)NC(=O)[C@H](Cc1c[nH]c2ccccc12)NC(=O)[C@H](CCC(=O)O)NC(=O)[C@H](CCCCN)NC(=O)[C@@H](NC(=O)CN)[C@@H](C)O)C(=O)N[C@@H](CCCCN)C(=O)N[C@@H](CCC(=O)O)C(=O)N[C@@H](CCCCN)C(=O)NCC(=O)N[C@@H](CC(C)C)C(=O)NCC(=O)N[C@@H](CCSC)C(=O)N[C@@H](CC(C)C)C(=O)N[C@@H](CO)C(=O)N[C@@H](C)C(=O)N[C@@H](C)C(=O)N[C@@H](C)C(=O)N[C@@H](CC(N)=O)C(=O)N[C@@H](C)C(=O)N[C@@H](C)C(=O)N[C@@H](CC(C)C)C(=O)N[C@@H](CC(N)=O)C(=O)O`, the HC50 was greater than 150 µM (1 h).

Repeated from above:
Under “minimum haemolytic concentration”, `CC(C)C[C@H](NC(=O)[C@H](CCCCN)NC(=O)[C@H](CCCCNC(=O)[C@H](CC(C)C)NC(=O)[C@H](CCCCN)NC(=O)[C@H](CCCCNC(=O)[C@H](CC(C)C)NC(=O)[C@H](CCCCN)NC(=O)[C@H](CCCCNC(=O)[C@H](CC(C)C)NC(=O)[C@@H](N)CCCCN)NC(=O)[C@H](CC(C)C)NC(=O)[C@@H](N)CCCCN)NC(=O)[C@H](CC(C)C)NC(=O)[C@H](CCCCN)NC(=O)[C@H](CCCCNC(=O)[C@H](CC(C)C)NC(=O)[C@@H](N)CCCCN)NC(=O)[C@H](CC(C)C)NC(=O)[C@@H](N)CCCCN)NC(=O)[C@H](CC(C)C)NC(=O)[C@H](CCCCN)NC(=O)[C@H](CCCCNC(=O)[C@H](CC(C)C)NC(=O)[C@H](CCCCN)NC(=O)[C@H](CCCCNC(=O)[C@H](CC(C)C)NC(=O)[C@@H](N)CCCCN)NC(=O)[C@H](CC(C)C)NC(=O)[C@@H](N)CCCCN)NC(=O)[C@H](CC(C)C)NC(=O)[C@H](CCCCN)NC(=O)[C@H](CCCCNC(=O)[C@H](CC(C)C)NC(=O)[C@@H](N)CCCCN)NC(=O)[C@H](CC(C)C)NC(=O)[C@@H](N)CCCCN)C(N)=O` is recorded as 1000 µg/mL (haemolysis; 4 h, pH 7.4, 25 °C).
